Experimental data gathered from unrelated publications.
Protocols differ between the studies behind these lines.

| Structure (SMILES) | organism | test | system | conditions | MIC |
| --- | --- | --- | --- | --- | --- |
| CC[C@H]1OC(=O)[C@H](C)[C@@H](O[C@H]2C[C@@](C)(OC)[C@@H](O)[C@H](C)O2)[C@H](C)[C@@H](O[C@@H]2O[C@H](C)C[C@H](N(C)C)[C@H]2O)[C@](C)(O)C[C@@H](C)CN(C)[C@H](C)[C@@H](O)[C@]1(C)O | Neisseria gonorrhoeae | broth microdilution | WHO M | 1.5 h | 1 µg/mL |
| CN(C)[C@@H]1C(O)=C(C(N)=O)C(=O)[C@@]2(O)C(O)=C3C(=O)c4c(O)cccc4[C@@](C)(O)[C@H]3C[C@@H]12 | Acidovorax avenae |  | ATCC 19307 |  | 16 µg/mL |
| OC(Cn1cncn1)(Cn1cncn1)c1ccc(F)cc1F | Candidozyma auris | inhibitor | 276 | 24 h | 128 µg/mL |
| CCCCCOc1ccc(-c2ccc(-c3ccc(C(=O)N[C@H]4C[C@@H](O)[C@@H](OCC[N+](C)(C)C)NC(=O)[C@@H]5[C@@H](O)[C@@H](C)CN5C(=O)[C@H]([C@@H](C)O)NC(=O)[C@H]([C@H](O)[C@@H](O)c5ccc(O)cc5)NC(=O)[C@@H]5C[C@@H](O)CN5C(=O)[C@H]([C@@H](C)O)NC4=O)cc3)cc2)cc1 | Candida glabrata | CLSI broth microdilution | 10956 |  | 0.5 µg/mL |
| O=C(NC1CCCCC1)C(CCc1ccccc1)N(CCc1c[nH]cn1)C(=O)c1ccccc1 (stereo not drawn) | Micrococcus luteus |  | DSM 1790 |  | 128 µM |
| CC1(C)S[C@@H]2[C@H](NC(=O)Cc3ccccc3)C(=O)N2[C@H]1C(=O)O | Neisseria gonorrhoeae | broth microdilution | WHO G | 1.5 h | 16 µg/mL |
| CC[C@H](C)[C@H](NC(=O)[C@H](CCCCN)NC(=O)[C@H](CCC(=O)O)NC(=O)[C@H](CCCCN)NC(=O)[C@H](CO)NC(=O)[C@H](CCCCN)NC(=O)[C@H](CCCNC(=N)N)NC(=O)[C@H](Cc1ccccc1)NC(=O)[C@H](Cc1ccccc1)NC(=O)[C@H](CC(=O)O)NC(=O)CNC(=O)[C@H](CC(C)C)NC(=O)[C@@H](N)CC(C)C)C(=O)NCC(=O)N[C@@H](CCCCN)C(=O)N[C@@H](CCC(=O)O)C(=O)N[C@@H](Cc1ccccc1)C(=O)N[C@@H](CCCCN)C(=O)N[C@@H](CCCNC(=N)N)C(=O)N[C@H](C(=O)N[C@H](C(=O)N[C@@H](CCC(N)=O)C(=O)N[C@@H](CCCNC(=N)N)C(=O)N[C@H](C(=O)N[C@@H](CCCCN)C(=O)N[C@@H](CC(=O)O)C(=O)N[C@@H](Cc1ccccc1)C(=O)N[C@@H](CC(C)C)C(=O)N[C@@H](CCCNC(=N)N)C(=O)N[C@@H](CC(N)=O)C(=O)N[C@@H](CC(C)C)C(=O)N[C@H](C(=O)N1CCC[C@H]1C(=O)N[C@@H](CCCNC(=N)N)C(=O)N[C@H](C(=O)N[C@@H](CCC(=O)O)C(=O)N[C@@H](CO)C(=O)O)[C@@H](C)O)C(C)C)[C@@H](C)CC)C(C)C)[C@@H](C)CC | Micrococcus luteus | broth microdilution | ATCC 4698 |  | 0.89 µM |
| CO/N=C(\C(=O)N[C@@H]1C(=O)N2C(C(=O)O)=C(CSc3nc(=O)c(O)nn3C)CS[C@H]12)c1csc(N)n1 | Neisseria gonorrhoeae | broth microdilution | WHO K | 1.5 h | 1 µg/mL |
| N=C(N)c1cccc(OCc2ccc(COc3cccc(C(=N)N)c3)cc2)c1 | Escherichia coli |  | BW25113 | compound alone, rifampicin checkerboard | > 200 µg/mL |
| C[C@H]1[C@H](NC(=O)/C(=N\OC(C)(C)C(=O)O)c2csc(N)n2)C(=O)N1S(=O)(=O)O | Enterobacter aerogenes | agar dilution | ATCC 13048 susceptible |  | 0.125 µg/mL |
| N#Cc1ccc2[nH]c(CNCC34CC5CC(CC(C5)C3)C4)nc2c1 | Enterobacter aerogenes |  | ATCC 35029 |  | > 128 µg/mL |
| CC1(C)SC2C(NC(=O)C(NC(=O)C3=C(O)C4CCCN4C3=O)c3ccccc3)C(=O)N2C1C(=O)O (stereo not drawn) | Escherichia coli | broth microdilution | ATCC 25922 wild type | with: clavulanic acid 6 µg/mL | 12.5 µg/mL |

A few entries again:
| Structure (SMILES) | organism | test | system | conditions | MIC |
| --- | --- | --- | --- | --- | --- |
| O=C(NC1CCCCC1)C(CCc1ccccc1)N(CCc1c[nH]cn1)C(=O)c1ccccc1 (stereo not drawn) | Micrococcus luteus |  | DSM 1790 |  | 128 µM |
| CC1(C)S[C@@H]2[C@H](NC(=O)Cc3ccccc3)C(=O)N2[C@H]1C(=O)O | Neisseria gonorrhoeae | broth microdilution | WHO G | 1.5 h | 16 µg/mL |
